{"data": "Measurements of several laboratories", "note": "Parts stem from different laboratories: compare values within a part only."}
{"data": "Set 1", "target": "Interferon regulatory factor 3, full length, phosphomimetic (IRF3, Homo sapiens, UniProt Q14653, residues 1-427, S386D/S396D/S398D/S402D/T404D/S405D)", "method": "protein-binding microarray", "form": "double-stranded DNA, one strand shown", "medium": "in vitro", "concentration": "2540 nM top", "notes": "60-bp whole probe", "together with": "salmon DNA 0.4 mg/ml", "baseline": "random background probes", "direction": "higher = stronger binding", "shared flanks, not repeated": "GCCTAGCAC … GTCTTGATTCGCTTGACGCTGCTG", "Residues (chain)": "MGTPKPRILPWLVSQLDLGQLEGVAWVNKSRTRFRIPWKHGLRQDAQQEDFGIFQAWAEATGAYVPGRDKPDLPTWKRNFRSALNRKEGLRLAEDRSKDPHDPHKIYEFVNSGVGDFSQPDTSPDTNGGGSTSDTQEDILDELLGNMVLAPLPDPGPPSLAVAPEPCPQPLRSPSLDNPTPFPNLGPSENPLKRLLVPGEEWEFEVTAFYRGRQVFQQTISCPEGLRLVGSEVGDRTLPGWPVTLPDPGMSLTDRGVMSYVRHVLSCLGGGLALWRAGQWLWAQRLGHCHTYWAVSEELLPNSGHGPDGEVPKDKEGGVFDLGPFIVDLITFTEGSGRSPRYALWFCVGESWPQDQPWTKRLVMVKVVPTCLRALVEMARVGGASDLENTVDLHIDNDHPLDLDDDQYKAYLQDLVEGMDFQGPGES"}
{"Sequence": "TCACAGATGTTTTTCATACTGTGCTAG", "fitted relative affinity [z-score]": 0.376}
{"Sequence": "GACGATTTCGGGTCTCGAGACGTGCTA", "fitted relative affinity [z-score]": 2.69}
{"Sequence": "CTCATTCTCTGCTTCTGTATGTGCTAG", "fitted relative affinity [z-score]": 2.05}
{"Sequence": "GACGGTTTCGGGTTTGGGGACGTGCTA", "fitted relative affinity [z-score]": 5.15}
{"Sequence": "TTAAGTATCGACTATCGGTTAGTGCTA", "fitted relative affinity [z-score]": 0.457}
{"data": "Set 2", "target": "Histone acetyltransferase KAT6A, winged helix 1, GST fusion (KAT6A, Homo sapiens, UniProt Q92794, residues 1-85)", "method": "protein binding microarray", "form": "double-stranded DNA, one strand shown", "medium": "in vitro", "concentration": "not given", "notes": "8-mer, flanks averaged, mean of 2 arrays, mostly near background", "baseline": "not given", "direction": "higher = stronger binding", "Construct (chain)": "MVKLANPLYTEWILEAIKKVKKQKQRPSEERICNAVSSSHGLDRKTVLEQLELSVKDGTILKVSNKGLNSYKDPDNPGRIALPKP"}
{"Sequence": "CGAGTAAC", "E-score": -0.0471}
{"Sequence": "CCTGATGC", "E-score": -0.0186}
{"Sequence": "ACTAAGTG", "E-score": -0.261}
{"Sequence": "CGTCATTA", "E-score": 0.074}
{"data": "Set 3", "target": "Fragile X messenger ribonucleoprotein 1, C-terminal low-complexity region (Fmr1, Mus musculus, UniProt P35922)", "method": "RNA Bind-n-Seq", "form": "RNA", "medium": "in vitro", "concentration": "200 nM", "notes": "whole 134-nt RNA, ends assumed", "together with": "150 mM KCl", "baseline": "input library", "direction": "higher = stronger binding"}
{"Sequence": "GGGAGUUCUACAGUCCGACGAUCGAUUCCCUCCACAUGCUGCACGCGCAUCUCGCCCCCAGGGGCACUGCCUGGAAGAUUCAGGAGCCUGGGCGGCCUUCGCUUACUCUCACCUGGAAUUCUCGGGUGUCAAGG", "log2 enrichment": 0.95}
{"Sequence": "GGGAGUUCUACAGUCCGACGAUCCAAGUCCUGUGCUACACAUCGUAUGUACCGAAUCGGAAAAGGAAAAGGGGAAAAGGAAAGUAUUAUGUUACGCCGUUCGGAUCUGCACUUUGGAAUUCUCGGGUGUCAAGG", "log2 enrichment": -0.531}
{"Sequence": "GGGAGUUCUACAGUCCGACGAUCCAAGUCCUGUGCUACACAUCGUAUGUACCGAAUCGGUUUUGGGUUUUGGUUUUGGGAAAGUAUUAUGUUACGCCGUUCGGAUCUGCACUUUGGAAUUCUCGGGUGUCAAGG", "log2 enrichment": -0.696}
{"Sequence": "GGGAGUUCUACAGUCCGACGAUCCUGUGCUACACAUCGUAUGUACCGAAUCAAAUUUUUUUAAAUUUUUUUAAACCCCCCCAAAAAAGUAUUAUGUUACGCCGUUCGGAUCUGUGGAAUUCUCGGGUGUCAAGG", "log2 enrichment": -0.407}
{"data": "Other studies, line by line"}
{"Molecule": "PhoQ, residues 284 288 289 292 302 303 TSTLRA", "target": "PhoP, residues 12 14 15 18 19 HHYTI (Escherichia coli, UniProt P23836)", "test": "Sort-seq, item: YFP reporter", "system": "E. coli", "conditions": "PhoQ-PhoP variant library, together with: 10 µM Mg2+", "scale": "baseline: high Mg2+ state, higher = stronger signaling", "quantity": "fold induction", "result": 1.85}
{"note": "Excerpt of the above (set 2):"}
{"Sequence": "CCTGATGC", "E-score": -0.0186}
